Published values from different studies.
Each line is one published result; not all experiments were run side by side.
Cell line: DU-145

`Cn1cncc1C1=CN(c2ncnc3[nH]cnc23)CCS1` gave a CC50 of > 200000 nM (prostate cancer).
For `COc1c(CCC[P+](c2ccccc2)(c2ccccc2)c2ccccc2)cc2c(c1OC)OCO2.[I-]`, the TGI was > -4 log M (SRB).
With `CN1CCN(C2(CNC3CCN(c4cccc(-c5cc6cc(F)ccc6[nH]5)c4)CC3)CCC2)CC1` the GI50 was 1570 nM.
The CC50 of `CCN(CC)c1ccc(C=NNC(=O)CSc2nc3ccccc3c(=O)n2Cc2ccc(S(N)(=O)=O)cc2)c(O)c1` is reported as > 100000 nM (NCI five-dose screen).
For `CC(C)N1CCC(NC2CCN(c3cccc(-c4cc5cc(F)ccc5[nH]4)c3)CC2)CC1`, the GI50 was 1720 nM.
`Nc1ncc(-c2nc(N3CCOCC3)nc(N3CCOCC3)n2)c(C(F)F)n1` gave a GI50 of 59 nM (72 h).
With `COc1cc(CCC[P+](c2ccccc2)(c2ccccc2)c2ccccc2)c(OC)c2c1OCO2.[I-]` the GI50 was -5.49 log M (SRB).
The IC50 of `COc1c(C)c2c(c(O)c1C/C=C(\C)CCC(=O)O)C(=O)OC2` is reported as 631 nM (cell proliferation; prostate cancer).
For `COc1ccc2c(c1)[nH]c1c(C)nccc12`, the DNA methylation was 92.9% (bisulfite pyrosequencing, item: RASSF1A promoter CpG site 23; 10 µM, 16 h).

Some of these lines once more:
`Cn1cncc1C1=CN(c2ncnc3[nH]cnc23)CCS1` gave a CC50 of > 200000 nM (prostate cancer).
